Experimental data gathered from unrelated publications.
Protocols differ between the studies behind these lines.
Organism: Pseudomonas aeruginosa

SMILES	assay	system	conditions	MIC
C#CCNC(=O)[C@H]1NC(=O)[C@H]2NC(=O)[C@H](NC(=O)[C@@H]3NC(=O)[C@H](CC(N)=O)NC(=O)[C@H](NC(=O)[C@@H](CC(C)C)NC)[C@H](O)c4ccc(c(Cl)c4)Oc4cc3cc(c4O[C@@H]3O[C@H](CO)[C@@H](O)[C@H](O)[C@H]3O[C@H]3C[C@](C)(N)[C@H](O)[C@H](C)O3)Oc3ccc(cc3Cl)[C@H]2O)c2ccc(O)c(c2)-c2c(O)cc(O)cc21	broth microdilution	ATCC 35218, cation-adjusted Mueller-Hinton broth		22 µM
CC(C)C[C@H](NC(=O)[C@H](CC(C)C)NC(=O)[C@H](CCCCN)NC(=O)[C@H](Cc1ccccc1)NC(=O)[C@@H](NC(=O)[C@H](CCCNC(=N)N)NC(=O)[C@@H](N)CCCCN)C(C)C)C(=O)N[C@@H](CCCCN)C(=O)N[C@@H](CCCNC(=N)N)C(=O)N[C@@H](Cc1ccc(O)cc1)C(=O)N[C@@H](Cc1c[nH]c2ccccc12)C(=O)N[C@@H](CCCNC(=N)N)C(=O)N[C@@H](CCC(N)=O)C(=O)N[C@@H](CC(C)C)C(=O)N[C@@H](CCCCN)C(=O)N[C@@H](CCCCN)C(=O)N1CCC[C@H]1C(=O)N[C@H](C(=O)N[C@@H](CCCNC(=N)N)C(=O)NCCOCCOCC(=O)O)C(C)C		ATCC 10145, GFP-expressing	28 h	3.2 µM
CN[C@@H]1[C@H](O)[C@H](NC)[C@H]2O[C@]3(O)[C@H](O[C@@H]2[C@H]1O)O[C@H](C)C[C@H]3NC(=O)Cc1ccccc1	microbial growth, broth dilution	PAO1		100 µg/mL
CN[C@H](CC(C)C)C(=O)N[C@H]1C(=O)N[C@@H](CC(N)=O)C(=O)N[C@H]2C(=O)N[C@H]3C(=O)N[C@H](C(=O)N[C@H](C(=O)O)c4cc(O)cc(O)c4-c4cc3ccc4O)[C@H](O)c3ccc(c(Cl)c3)Oc3cc2cc(c3O[C@@H]2O[C@H](CO)[C@@H](O)[C@H](O)[C@H]2O[C@H]2C[C@](C)(NCc3ccc(OCc4cn(CC(=O)N[C@H](C(=O)N[C@@H](CCN)C(=O)N[C@H]5CCNC(=O)[C@H]([C@@H](C)O)NC(=O)[C@H](CCN)NC(=O)[C@H](CCN)NC(=O)[C@H](CC(C)C)NC(=O)[C@@H](CC(C)C)NC(=O)[C@H](CCN)NC5=O)[C@@H](C)O)nn4)c(OC)c3)[C@H](O)[C@H](C)O2)Oc2ccc(cc2Cl)[C@H]1O	broth microdilution	ATCC 25922, cation-adjusted Mueller-Hinton broth		6 µM
CC(C)C[C@@H]1NC(=O)[C@H](CCCCN)NC(=O)C(N)CCC=CCCCC(C(N)=O)NC(=O)[C@H](CCCCN)NC(=O)[C@H](CC(C)C)NC(=O)[C@H](CCCCN)NC(=O)C2CCCC=CCCC(NC(=O)[C@H](CCCCN)NC1=O)C(=O)N[C@@H](CCCCN)C(=O)N1CCC[C@@H]1C(=O)NCC(=O)N[C@@H](CCCCN)C(=O)N2 (stereo partly shown)	broth microdilution	ATCC 9027, Mueller-Hinton broth	18 h, 37 °C	64 µM
CC[C@H](C)[C@H](NC(=O)[C@@H](CCCNC(=N)N)NC(=O)[C@H](CCCNC(=N)N)NC(=O)[C@@H]1CCCN1C(=O)[C@@H]1CCCN1C(=O)[C@H](CCCNC(=N)N)NC(=O)[C@@H]1CCCN1C(=O)[C@H](CCCNC(=N)N)NC(=O)[C@@H]1CCCN1C(=O)[C@@H](NC(=O)[C@H](Cc1ccc(O)cc1)NC(=O)[C@@H]1CCCN1C(=O)[C@@H]1CCCN1C(=O)[C@H](CCCCN)NC(=O)[C@H](CC(=O)O)NC(=O)[C@@H](N)C(C)C)C(C)(C)C)C(=O)N[C@@H](Cc1ccc(O)cc1)C(=O)N[C@@H](CC(N)=O)C(=O)N[C@H](CCCNC(=N)N)C(N)=O	broth microdilution	DSM 1117	18 h, 37 °C, 25% MHB2	128 µg/mL
CC(=O)N[C@H](Cc1ccc(C(F)(F)F)cc1)C(=O)N[C@@H](CCN)C(=O)N[C@H](C(=O)N[C@@H](CCN)C(=O)N[C@H]1CCNC(=O)[C@H]([C@@H](C)O)NC(=O)[C@H](CCN)NC(=O)[C@H](CCN)NC(=O)[C@H](CC(C)C)NC(=O)[C@@H](Cc2ccccc2)NC(=O)[C@H](CCN)NC1=O)[C@@H](C)O	broth microdilution	colistin-resistant isolates		32 to 64 µg/mL
CC[C@H](C)[C@H](NC(=O)[C@@H](CCCNC(=N)N)NC(=O)[C@H](CCCNC(=N)N)NC(=O)[C@@H]1CCCN1C(=O)[C@@H]1CCCN1C(=O)[C@H](CCCNC(=N)N)NC(=O)[C@H](Cc1c[nH]c2ccccc12)NC(=O)[C@H](CCCNC(=N)N)NC(=O)[C@@H]1CCCN1C(=O)[C@H](CC(C)C)NC(=O)[C@H](Cc1ccc(O)cc1)NC(=O)[C@@H]1CCCN1C(=O)[C@@H]1CCCN1C(=O)[C@H](CCCCN)NC(=O)[C@H](CC(=O)O)NC(=O)[C@@H](N)C(C)C)C(=O)N[C@@H](Cc1ccc(O)cc1)C(=O)N[C@@H](CC(N)=O)C(=O)N[C@H](CCCNC(=N)N)C(N)=O	broth microdilution	DSM 1117	18 h, 37 °C, 25% MHB2	> 128 µg/mL
CCn1c(-c2ccc(F)cc2)c(-c2ccc(F)cc2)n(CC)c1=[Se]	broth microdilution	carbapenem-resistant BAA-2108	24 h	> 40 µM
CC[C@H](C)[C@H](NC(=O)CNC(=O)[C@H](CC(=O)O)NC(=O)[C@H](CCCNC(=N)N)NC(=O)[C@@H](NC(=O)[C@H](Cc1c[nH]cn1)NC(=O)[C@H](CCC(N)=O)NC(=O)CNC(=O)[C@@H](NC(=O)[C@H](CCCNC(=N)N)NC(=O)[C@H](CCC(=O)O)NC(=O)[C@@H](NC(=O)[C@H](CCCCN)NC(=O)[C@H](CCCCN)NC(=O)[C@H](Cc1ccccc1)NC(=O)[C@@H](NC(=O)[C@H](CCCCN)NC(=O)[C@H](Cc1c[nH]c2ccccc12)NC(=O)[C@@H](N)CCCCN)[C@@H](C)CC)[C@@H](C)CC)C(C)C)C(C)C)C(=O)N[C@H](C(=O)N[C@@H](CCCCN)C(=O)N[C@@H](C)C(=O)NCC(=O)N[C@@H](CO)C(=O)N[C@@H](C)C(=O)N[C@H](C(=O)N[C@@H](CCC(N)=O)C(=O)N[C@H](C(=O)N[C@H](C(=O)NCC(=O)N[C@@H](CCC(N)=O)C(=O)N[C@@H](C)C(=O)N[C@@H](C)C(=O)N[C@@H](C)C(=O)N[C@H](C(=O)N[C@@H](C)C(=O)N[C@@H](CCCCN)C(N)=O)[C@@H](C)CC)C(C)C)C(C)C)C(C)C)[C@@H](C)CC	bacterial growth, broth microdilution	cation-adjusted Mueller Hinton broth	18 h, 37 °C	≤ 0.062 µM
CC(C)C[C@@H](NC(=O)[C@@H](CCCNC(=N)N)NC(=O)[C@H](N)CCCNC(=N)N)C(=O)N[C@H](CC(C)C)C(=O)N[C@H](CCCNC(=N)N)C(=O)N[C@H](CCCCN)C(=O)N[C@H](CC(C)C)C(=O)N[C@H](CCCCN)C(=O)NCC(=O)N[C@H](CCCCN)C(=O)N[C@H](CCCCN)C(=O)N[C@H](CC(C)C)C(=O)N[C@H](Cc1ccc(O)cc1)C(=O)N[C@H](CC(C)C)C(=O)N[C@H](Cc1ccc(O)cc1)C(=O)N[C@H](Cc1ccccc1)C(=O)N[C@H](CCCCN)C(=O)N[C@H](CC(C)C)C(=O)N[C@H](CCC(N)=O)C(=O)N[C@H](CC(C)C)C(=O)N[C@H](CC(C)C)C(=O)N[C@H](CCCCN)C(=O)N[C@H](CCCCN)C(N)=O		KCTC 1637, Mueller-Hinton broth	24 h	2 µM
CC(=O)N[C@H](Cc1cccc(F)c1)C(=O)N[C@@H](CCN)C(=O)N[C@H](C(=O)N[C@@H](CCN)C(=O)N[C@H]1CCNC(=O)[C@H]([C@@H](C)O)NC(=O)[C@H](CCN)NC(=O)[C@H](CCN)NC(=O)[C@H](CC(C)C)NC(=O)[C@@H](Cc2ccccc2)NC(=O)[C@H](CCN)NC1=O)[C@@H](C)O	broth microdilution	PAO1, colistin-susceptible		0.25 to 0.5 µg/mL
C#CCOc1ccc(CN[C@@]2(C)C[C@H](O[C@H]3[C@H](Oc4c5cc6cc4Oc4ccc(cc4Cl)[C@@H](O)[C@@H](NC(=O)[C@@H](CC(C)C)NC)C(=O)N[C@@H](CC(N)=O)C(=O)N[C@H]6C(=O)N[C@H]4C(=O)N[C@H](C(=O)N[C@H](C(=O)N[C@@H](CCCNC(=N)N)C(N)=O)c6cc(O)cc(O)c6-c6cc4ccc6O)[C@H](O)c4ccc(c(Cl)c4)O5)O[C@H](CO)[C@@H](O)[C@@H]3O)O[C@@H](C)[C@H]2O)cc1OC	broth microdilution	ATCC 25922, cation-adjusted Mueller-Hinton broth		9 µM
CC[C@H](C)[C@H](NC(=O)[C@H](CCCCN)NC(=O)[C@H](CCCNC(=N)N)NC(=O)[C@H](Cc1c[nH]c2ccccc12)NC(=O)[C@@H](NC(=O)[C@H](CC(N)=O)NC(=O)[C@H](CCCNC(=N)N)NC(=O)[C@@H](NC(=O)[C@H](CCCNC(=N)N)NC(=O)[C@H](CC(N)=O)NC(=O)[C@H](CCCNC(=N)N)NC(=O)[C@H](CC(C)C)NC(=O)[C@H](CCCNC(=N)N)NC(=O)[C@H](CCCNC(=N)N)NC(=O)[C@H](Cc1ccccc1)NC(=O)[C@H](CCCNC(=N)N)NC(=O)CN)[C@@H](C)CC)[C@@H](C)CC)C(=O)NCC(=O)N1CCC[C@H]1C(=O)N[C@H](C(=O)N[C@@H](C)C(=O)NCC(=O)N1CCC[C@H]1C(=O)N[C@@H](CC(C)C)C(=O)N[C@H](C(=O)N[C@@H](CO)C(=O)N[C@@H](CCCNC(=N)N)C(=O)N[C@@H](Cc1ccccc1)C(=O)NCC(=O)O)[C@@H](C)CC)[C@@H](C)CC	CLSI agar dilution	ATCC 27853	20 h, 37 °C	16 µg/mL
CC(C)C[C@@H]1NC(=O)[C@@H](CC(C)C)NC(=O)[C@H](CCN)NC(=O)[C@@H](NC(=O)[C@H](CCN)NC(=O)[C@@H](NC(=O)CCOCCOCCOCCN=[N+]=[N-])[C@@H](C)O)CCNC(=O)[C@H]([C@@H](C)O)NC(=O)[C@H](CCN)NC(=O)[C@H](CCN)NC1=O	broth microdilution	ATCC 27736, cation-adjusted Mueller-Hinton broth		55 µM
CC[C@H](C)[C@H](NC(=O)CNC(=O)[C@@H](NC(=O)CNC(=O)[C@@H](NC(=O)CNC(=O)[C@@H](NC(=O)[C@@H](NC(=O)[C@H](CCC(N)=O)NC(=O)[C@H](CCC(=O)O)NC(=O)[C@@H](NC(=O)[C@H](CC(C)C)NC(=O)[C@H](CCCNC(=N)N)NC(=O)[C@H](Cc1ccccc1)NC(=O)[C@@H](NC(=O)[C@H](CC(N)=O)NC(=O)[C@H](CCCCN)NC(=O)CNC(=O)[C@H](CCSC)NC(=O)[C@H](CCCCN)NC(=O)CNC(=O)[C@H](CC(C)C)NC(=O)[C@H](CCCCN)NC(=O)[C@H](CCCCN)NC(=O)CNC(=O)[C@H](Cc1ccccc1)NC(=O)[C@H](CCCCN)NC(=O)[C@H](CCCCN)NC(=O)[C@H](CC(C)C)NC(=O)[C@H](Cc1c[nH]c2ccccc12)NC(=O)CN)C(C)C)C(C)C)C(C)C)C(C)C)C(C)C)C(C)C)C(=O)N[C@@H](CC(N)=O)C(=O)N[C@@H](C)C(=O)N[C@@H](CC(C)C)C(=O)N[C@@H](CO)C(=O)O	broth microdilution	ATCC 27853, Mueller-Hinton broth	16 to 20 h, 37 °C	8.79 µg/mL

Some of these lines once more:
SMILES	assay	system	conditions	MIC
CN[C@@H]1[C@H](O)[C@H](NC)[C@H]2O[C@]3(O)[C@H](O[C@@H]2[C@H]1O)O[C@H](C)C[C@H]3NC(=O)Cc1ccccc1	microbial growth, broth dilution	PAO1		100 µg/mL
